Assay results gathered from unrelated publications.
Each line is one published result; not all experiments were run side by side. “And” joins repeats or separate records; there may be more than shown. Numbers after ± are the reported error.
UCHL1: Ubiquitin carboxyl-terminal hydrolase isozyme L1 (UCHL1, Homo sapiens, UniProt P09936)
UniProt P09936, sequence (whole entry, looked up): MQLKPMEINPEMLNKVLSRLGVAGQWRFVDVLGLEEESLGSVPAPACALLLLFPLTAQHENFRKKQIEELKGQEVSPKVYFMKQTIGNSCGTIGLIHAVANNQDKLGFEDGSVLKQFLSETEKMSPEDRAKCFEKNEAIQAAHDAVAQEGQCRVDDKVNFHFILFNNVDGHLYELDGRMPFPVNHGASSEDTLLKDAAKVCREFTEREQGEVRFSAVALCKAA

| SMILES | target or system | assay | test system | setting | how to read | endpoint | value |
| --- | --- | --- | --- | --- | --- | --- | --- |
| CCCNC(=O)[C@H]1O[C@@H]1C(=O)N[C@H](C(=O)N1CCC[C@H]1C(=O)OC)[C@@H](C)CC | MCF-10A | cell viability, MTT | – | 72 h, dark | – | EC50 | 49000 ± 5500 nM |
| C#C[C@@]1(O)[C@@H](CO)O[C@@H](n2cc(F)c3c(N)ncnc32)[C@@H]1O | NCI60 panel | cell growth | – | mean over panel | – | TGI | -5.18 log M |
| CC1(C)CCC(CN2CCN(c3ccc(C(=O)NS(=O)(=O)c4ccc(NCC5CCOCC5)c([N+](=O)[O-])c4)c(Oc4cnc5[nH]ccc5c4)c3)CC2)=C(c2ccc(Cl)cc2)C1 | THP-1 | annexin V/PI flow cytometry, item: annexin V-/PI+ | – | 0.2 µM, 24 h | – | necrotic cells | 0.1% |
| COc1ccc(-n2nc(C(C)=O)s/c2=N\N=C(/C)c2ccc(NC(=O)c3ccccc3)cc2)cc1 | HepG2 | – | – | 5 µM | – | toxicity | 97% |
| CC(C)(C)c1cc(O)ccc1O | HepG2 | extracellular flux, item: oxygen consumption rate | – | 1 h, distribution mode 1 | – | point of departure | 0.0115 µM |
| CCn1cc(-c2cc(Cn3ccnc3)cc3c2CCN([C@H](c2cc(OC)ccn2)C2CC2)C3=O)c(C(F)(F)F)n1 | COLO-668 | cell growth, inhibitor | – | 120 h | – | EC50 | 530 nM |
| CC1(C)COc2ccc(F)cc2CN2c3nc4c(cnn4cc3OC[C@H]2C(F)F)C(=O)N1 | NCI-H2228 (EML4-ALK variant 3) | cell viability | – | – | – | Emax | 30.1% |
| [Cl-].[Cl-].[Os+2].c1cnc2c(c1)ccc1cccnc12.c1cnc2c(c1)ccc1cccnc12.c1cnc2c(c1)ccc1cccnc12 | SK-MEL-28 | resazurin | – | normoxia, with: red light 633 nm | relative to: dark EC50 over light EC50 | phototherapeutic index | 2 |
| Cc1ccc(CNC(=O)Cn2cc(CSc3nc4ccccc4[nH]3)nn2)cc1 | MDA-MB-231 | MTT | – | 15.6 ppm | – | cytotoxicity | 81.4% |
| Cn1cncc1C1=CN(c2ncnc3[nH]cnc23)CCS1 | MDA-MB-231/ATCC | – | – | – | – | TGI | 144000 nM |
| Cc1ccc(NC(=O)[C@H]2CCCN(C(=O)c3c(C)cccc3F)[C@H]2c2ccc(NC3CCCC3)cc2)cc1C(F)(F)F | human peripheral blood neutrophils | flow cytometry FSC/SSC | – | 1 µM, with: TNF-α 5 ng/mL, MPO-ANCA immune complex | relative to: unstimulated neutrophils | neutrophil swelling | 2.79 fold change and 2.6 fold change and 4.04 fold change and 3.01 fold change |
| CCCCCCCCCCCCCC[N+](C)(C)C | GH3 | Na+ channel | – | internal application, upper limit | – | Kd | 480 nM |
| Cc1cc(C)nc(SCC(=O)Nc2ncc(Cc3cccc(OCc4cn(Cc5ccc(OCCN6CCOCC6)cc5)nn4)c3)s2)n1 | PC-3M-luc | colony formation, colony forming | – | 25 µM | – | inhibition | 94.2 ± 2.6% |
| O=Cc1c[nH]c2ccc(S(=O)(=O)N3CCCCC3)cc12 | UCHL1 | covalent, intact protein LC-MS | – | 12.5 µM | – | labelling | 24.3% |
| Cc1nn(-c2nc3c(F)cc(F)cc3s2)c(O)c1C(c1ccc(C(F)(F)F)cc1)c1c(C)nn(-c2nc3c(F)cc(F)cc3s2)c1O | THP1-Dual | western blot | – | 20 µM, with: HT-DNA | relative to: DMSO | phospho-IRF3 to IRF3 ratio | 0.342 and 0.525 and 0.665 |
| CCc1cnc(N2CCC(c3nc(COc4ccc(-n5cnnn5)cc4)cs3)CC2)nc1 | HEK-293T | RNA-seq GSEA, item: HALLMARK_MTORC1_SIGNALING | – | concentration not given | direction not given | normalized enrichment score | 1.77 |
| CCn1cc(-c2cc(Cn3ccoc3=N)cc3c2CCN([C@@H](C)c2cc(OC)ccn2)C3=O)c(C(F)(F)F)n1 | SBC-5 | cell growth, inhibitor | – | 120 h | – | EC50 | 77.5 nM |
| COc1ccc([C@@H](O)c2cc(-c3ncnc4cc(N5CCOCC5)ccc34)c(F)cc2Cl)nn1 | M12 | clonogenic survival | – | 16 h, 50% unbound in medium | – | free concentration for maximal radiosensitization | 150 nM |
| COc1ccc(NC(=O)c2c(Nc3ccccc3)sc(C(=O)NN=Cc3ccc(OC)c(O)c3)c2NC(C)=O)cc1 | HepG2 | flow cytometry | – | IC50, 24 h | – | cells in Apoptosis | 6.07 ± 0.42% |
| Cn1cc(Nc2nccc(-c3ccc4c(c3)CN(C3COC3)CC[C@H]4NC(=O)c3cn(C(C)(C)C)nn3)n2)cn1 | mouse splenic B cells | item: Netrin signalling | – | 30 mg/kg, IgD-activated in vivo | relative to: vehicle, direction not given | pathway activation z-score | 2.33 |
| CCCCN1CCN(c2ccc3nc(-c4ccc5nc(-c6cc(OC)ccc6OC)[nH]c5c4)[nH]c3c2)CC1 | SNB-75 | SRB | – | 10 µM, 48 h | – | growth percent | 85.7% |
| C[C@H]1Oc2cc(cnc2N)-c2c(nn(C)c2C#N)CN(C)C(=O)c2ccc(F)cc21 | Ba/F3 EML4-ALK v1 | cell viability | – | – | – | Emax | 100% |
| O=S(=O)(O)O | human neutrophils | anion exchange, substrate, trans-stimulated sulfate efflux | – | 85 mM K+, glucuronate medium, with: nigericin 2 µM | – | Km | 15.5 mM |
| Cc1cc(=O)[nH]n1-c1nc(-c2ccc(Cl)cc2)c2c(NC(=O)c3ccccc3)nnc-2[nH]1 | MDA-MB-231/ATCC | NCI60 SRB | – | 10 µM | – | growth percent | 107% |

| SMILES | target or system | assay | test system | setting | how to read | endpoint | value |
| --- | --- | --- | --- | --- | --- | --- | --- |
| Clc1ccc(Nc2nc(Cl)nc(NC3CCCCC3)n2)cc1 | UCHL1 | covalent, intact protein LC-MS | – | 12.5 µM | – | labelling | 10.4% |
| C=Cc1c2[n-]c(c1C)/C=c1\[n-]/c(c(C)c1C=C)=C\c1[n-]c(c(CCC(=O)O)c1C)/C=c1\[n-]c(c(C)c1CCC(=O)O)=C2.[Sn+4] | SH-SY5Y | RNA-seq, item: ANKRD1 mRNA | – | 5 µM, 5 h | relative to: untreated cells | fold change | 2.89 |
| O=C1N(Cc2ccccc2Cl)c2ccccc2C12NN=C(c1ccccc1)S2 (stereo not drawn) | SK-N-BE(2) and SK-N-SH neuroblastoma | MTT | – | 10 µM, 24 h | – | viability loss | 50 to 60% |
| Cl.Cl.NCCNS(=O)(=O)c1ccc(Cl)c2ccncc12 | SK-OV-3 | ATP | 3D gellan gum culture | 0.01 µM, 4 days | relative to: untreated | relative cell number | 96.6% |
| C/C=C/C/C=C/CCC(=O)[C@H]1O[C@H]1C(N)=O | MCF-10A | CellTiter-Glo | – | concentration not given, replicate D | relative to: normalised luminescence | viability | 73.2% |
| O=C(/C=C/C=C/C=C/C1CCCCC1)NC1=C[C@@](O)(/C=C/C=C/C=C/C(=O)NC2=C(O)CCC2=O)[C@@H]2O[C@@H]2C1=O | TE-6 | cell growth, CellTiter-Glo | – | 78 h | – | GI50 | 23300 nM |
| Nc1ncnc2c1ncn2[C@@H]1O[C@H](CO)[C@@H](O)[C@H]1O | activated human T cells | – | – | 316 nM | higher = more proliferation | T cell proliferation | 70.2 a.u. and 66.4 a.u. and 64.3 a.u. |
| c1ccc2[nH]ccc2c1 | HCT-8 | RNA-seq, item: PPP1R32 | – | concentration not given | – | mRNA level, LS mean | 1.54 counts per million |
| Cc1cc(Nc2ncc(Cl)c(Nc3ccccc3S(=O)(=O)C(C)C)n2)c(OC(C)C)cc1C1CCNCC1 | CLB-BAR | phosphoproteomics LC-MS/MS, item: SHC3 phosphorylation | – | 200 nM, 60 min | relative to: untreated | log2 fold change | -1.99 |
| CSc1nc(-c2ccc(Cl)cc2)c2c(NC(=O)c3ccccc3)nnc-2[nH]1 | MDA-MB-231/ATCC | NCI60 SRB | – | 10 µM | – | growth percent | 80.1% |
| Cc1c(C(=O)O)ccc2c3n(nc12)[C@@H]1[C@H](C3)N(CC2CC2)[C@@]2(C(=O)Nc3cc(Cl)ccc32)[C@H]1c1cccc(Cl)c1F | highly sensitive cancer cell lines | cell viability, PRISM pooled screen | – | median | – | IC50 | 107 nM |
| Cn1cc(-n2cnc3c(NCc4nc5cc(Cl)c(Cl)cc5[nH]4)nc(N4CCOCC4)nc32)cn1 | MDA-MB-468 | cell viability, CellCounting-Lite | – | 8.23 nM, 37 °C | higher = more viable cells | luminescence signal | 257000 a.u. and 313000 a.u. and 297000 a.u. |
| C=CCOc1c(C)c(O)c(C(=O)/C=C/c2ccccc2)c(OC)c1C | FaDu | SRB | – | – | relative to: normal over FaDu IC50 | selectivity index | 1.09 |
| C[C@]1(c2nc3c(C(N)=O)cccc3[nH]2)CCCN1 | MEF PTEN-/- | cell proliferation, CellTiter-Glo | – | 168 h | – | EC50 | 1700 nM |
| Nc1cccc2c1C(=O)N(C1CCC(=O)NC1=O)C2=O (stereo not drawn) | bone marrow CD138+ myeloma cells | XTT | – | 0.6 µM, mean of three patients | – | viability | 114% |
| O=C(O)c1cc(N2N=C(C(F)(F)F)/C(=C/c3ccc(-c4ccccc4)o3)C2=O)ccc1Cl | platelets | – | – | 3 to 10 µM | – | basal cytosolic Ca2+ level | increased |
| CCCCc1oc2ccccc2c1C(=O)c1cc(I)c(OCCN(CC)CC)c(I)c1 | human embryonic stem cell aggregates | microarray | – | 4 µM, 120 h | – | uniquely up-regulated genes number | 253 |
| NC1(c2ccc(-c3nc4ccn5c(=O)[nH]nc5c4cc3-c3ccccc3)cc2)CCC1 | MDA-MB-468 | flow cytometry, PI staining | – | EC80 concentration, 72 h, DMSO 22.2 | – | cells in S phase | 18.6% |
| CCCCN1CCN(c2ccc3[nH]c(-c4ccc5[nH]c(-c6ccc(OCC)cc6)nc5c4)nc3c2)CC1 | Malme-3M | SRB | – | 10 µM, 48 h | – | growth percent | 36% |
| Cn1cc(-c2ccc(-c3cncc(Cl)c3N3CCC4(CCNC4=O)CC3)cc2)cn1 | COLO 205 | gene expression, microarray, item: ZNF548 mRNA | – | concentration not given, 6 h | relative to: untreated cells | log2 fold change | 1.76 |
| N#Cc1ccc(C[C@H](Nc2c(Nc3ccc(F)cc3)c(=O)c2=O)C(=O)N2CCc3ccccc32)cc1 | human neutrophils | calcium mobilization, agonist | – | – | – | EC50 | 900 ± 400 nM |
| COc1cnc2cccc(N3CCc4c(cc(Cn5ccnc5C)cc4-c4cn(C)nc4C(F)(F)F)C3=O)c2c1 | COLO-668 | cell growth, inhibitor | – | 120 h | – | EC50 | 450 nM |
| CC(C)(C)c1ccc(C(O)CCCN2CCC(C(O)(c3ccccc3)c3ccccc3)CC2)cc1 (stereo not drawn) | MCF-10A | CellTiter-Glo | – | concentration not given | relative to: normalised, mean of replicates | viability | 26.1% |
| N#Cc1ccc(C[C@@H](Nc2nnc(-c3ccc(F)cc3)o2)C(=O)N2CCc3ccccc32)cc1 | human neutrophils | calcium mobilization, agonist | – | – | – | EC50 | > 50000 nM |

Excerpt of the above:
| SMILES | target or system | assay | test system | setting | how to read | endpoint | value |
| --- | --- | --- | --- | --- | --- | --- | --- |
| C=Cc1c2[n-]c(c1C)/C=c1\[n-]/c(c(C)c1C=C)=C\c1[n-]c(c(CCC(=O)O)c1C)/C=c1\[n-]c(c(C)c1CCC(=O)O)=C2.[Sn+4] | SH-SY5Y | RNA-seq, item: ANKRD1 mRNA | – | 5 µM, 5 h | relative to: untreated cells | fold change | 2.89 |
| O=C1N(Cc2ccccc2Cl)c2ccccc2C12NN=C(c1ccccc1)S2 (stereo not drawn) | SK-N-BE(2) and SK-N-SH neuroblastoma | MTT | – | 10 µM, 24 h | – | viability loss | 50 to 60% |
| Cl.Cl.NCCNS(=O)(=O)c1ccc(Cl)c2ccncc12 | SK-OV-3 | ATP | 3D gellan gum culture | 0.01 µM, 4 days | relative to: untreated | relative cell number | 96.6% |
| C/C=C/C/C=C/CCC(=O)[C@H]1O[C@H]1C(N)=O | MCF-10A | CellTiter-Glo | – | concentration not given, replicate D | relative to: normalised luminescence | viability | 73.2% |
